Published values gathered from unrelated publications.
Every numbered part comes from another study and shows a few of its results, in no order.

Sample 1
Target: RNA binding protein fox-1 homolog 2, RRM domain, GST-SBP tag (RBFOX2, Homo sapiens, UniProt O43251-10, residues 100-194)
Method: RNA Bind-n-Seq
Form: RNA
Matrix: in vitro
Concentration: 365 nM
Notes: natural RNA segment, single round, ends assumed
Reference: no-protein control
Reading: higher = stronger binding
Constant ends, left off below: GGGAGUUCUACAGUCCGACGAUC … UGGAAUUCUCGGGUGCCAA
Residues (chain): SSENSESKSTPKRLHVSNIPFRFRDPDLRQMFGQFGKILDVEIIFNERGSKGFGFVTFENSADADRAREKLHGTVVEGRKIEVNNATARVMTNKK
Oligonucleotide | RBNS enrichment (R)
UCCCUCCACACUUCCACUUUGUCCUCCUCGUCCCCUACCUCAACAAAGCAGGGUGGGGUAGGUGACAUUUGUGUAUCCACAUUCUUACCUUUGGUAGUCAGGUUUGGCUA | 1.19
AGUUAUAUGGGCCUGUAACACAAACCUGAGUUUUAACCUAGUUCUAAUUUUAUAAGGCAUCUUAUUUUAUCUUUCAGAGAGCUCUACUUCUGGCUCAGGGAAUCUGAUAG | 0.48
AUAAUUGUGGAAGCAGAUUCAUUGCUAGUUUAGUUUCAUAUAUAAUAUAUACAGUAAUUGUAGGGUCAUACCUCAAAUGCUGGUAUCUUACUUGGCCAUGGGGUUGCUUG | 1.04
AACCCUUUUCACAGUGUACUGUGUUUGGUUGGUGUAAAACUGAUGCAGAUUUUUCUGAAAUGAGAUGUUUAGAUGAGCAUACUACUAAAGCAGAGUGGAAAAAUCUGUCU | 0.546
AGCCUGAAGUGACGUCCACAGAACCCGCCCUUGUCUUUGUACAUCGUAUGUACACUGCAAUCAUUUCAUACUUUUGACUGGUCAGAAAAAAAAAACUAAUUGUGAUUUCU | 1.44
GCCAUUAUUUUGACGCCUUUUUGUUUUCUUUUUGAAAAACAAAAUAUUAUUCCCCUGCUUCAUGGCUGAAAUAAAAGGUGAUGGUAACUGGGGGCACCCCCUCUCCCUGG | 0.483
GCCCUCACCCGCCCCACUCCCUCCUAACCUAGAGAUUGUUACAGAAGCUGAAAUUGCGUUCUAAGAGGUGAAGUGAUUUUUUUUCUGAAACUCACACAACUAGGAAGUGG | 0.333
UGCUGUCGCAGAUCCUCUCUCUGGCCCUGUUUUGGGGAGGGCCAUUCUUGGUCCUAAGGUUCAUAGUUGAGGCCUUCUGUUCCAGCCUUAUGCUCCCAUCUCAGAGUUCA | 0.238
CACUAUUUAUUCUUUGUUCCUUUUUCUUUUUGUAAGAAACAUUCACAAAAACCAGUGCAAAACCAUCGUGUGGGCGUCCUGUUUUAUAUUACAAAACUUCCUCUGGAUAU | 0.447
UUGAACCGCAUCACCUUUCCUUGGCUUAAGCAUUCGUUACUAAUGGCAGGAAAGUCUUCCCUUCUAUAAGAUAUAUAUCUCUGUUAGCUUCAAGUAGGAAAUUUUAAUUU | 0.889
UUUGGAAAUUUACAUCAUCCUCAAGUAAAAUAAAUAUCAGUUAAAUAUUGGAAGCUGUGUGUAAGAUUGAUUCAGCAUUCCAUGCACUUGCUUUAAAAUUUAGUCCUGUG | 0.453
UCUUACCGAGUCCAUAGCUUCAUGCCCCUCUCGUGACUUACUGAGGGUCCAGAUGGCUGUCAGGAAGAUGACAAGGUAGGGAGGUAAGGACCGUGUUUGGAGGCUUCUGG | 0.473

Sample 2
Target: Interferon regulatory factor 5, full length, phosphomimetic (IRF5, Homo sapiens, UniProt Q13568-2, residues 1-514, K96S/S451D/S453D/S456D/S462D)
Method: protein-binding microarray
Form: double-stranded DNA, one strand shown
Matrix: in vitro
Concentration: 250 nM
Notes: 60-bp whole probe
With: salmon DNA 0.4 mg/ml
Reference: random background probes
Reading: higher = stronger binding
Constant ends, left off below: GCCTAGCAC … GTCTTGATTCGCTTGACGCTGCTG
Oligonucleotide | log fluorescence
TTAGGACTCGACTTTCGGTTAGTGCTA | 9.61 z-score
GACGGACTGGGGACTGGGGGCGTGCTA | 0.368 z-score
TTAGATTTCAATTTCGATTAGTGCTAG | 7.64 z-score
GACGATTTCAGTAGCGAGACGTGCTAG | 1.09 z-score
TATTTTTTTTATTTATAAATGTGCTAG | 1.42 z-score
TTAGGTATCGTGTATCGGTTAGTGCTA | 4.33 z-score
GACGAACTGGGAACTGGAGACGTGCTA | -0.332 z-score
TTAGGACTGGGGTATCGGTTCGTGCTA | 1.49 z-score
GACGGACTGATTCTCCTGACGTGCTAG | -0.171 z-score
GACGATTTGGGGACTGGAGACGTGCTA | -0.196 z-score
GACGGTTTCGACTTTCGGGGCGTGCTA | 7.31 z-score
TCACCTTACTTTATGTAACTGTGCTAG | 0.143 z-score
TAAGGTTCCCTTTTCCTTTAGTGCTAG | 0.469 z-score
TCATATTGCTTTCTCTTACTGTGCTAG | 2.57 z-score
TACGGACTGGGGTATCGGGACGTGCTA | -0.177 z-score
GACGGGTTCGACACTGGGGACGTGCTA | -0.458 z-score
TTGTCTTTTCATTTTCTTTAGTGCTAG | 2.3 z-score
GACGGTATCGATTTCGGGACGTGCTAG | 5.78 z-score
TTAGGAGTGGGGTTTCGGTTAGTGCTA | 6.71 z-score
GACGGACTGCTTCCCCTGACGTGCTAG | -0.505 z-score
TTAGGTCTCCTTATCCTTTAGTGCTAG | -0.0646 z-score
TGCTGTGTACATCTCTCTTAGTGCTAG | 0.0567 z-score
GCCCCACCCACTCTGGCCCCGTGCTAG | -0.453 z-score
GACGGTTTCCATATCCTGACGTGCTAG | 0.829 z-score
CGGGCTTTCCCGTCCAGGGCGTGCTAG | -0.225 z-score

Sample 3
Target: Histone acetyltransferase KAT6A, both winged helices, GST fusion (KAT6A, Homo sapiens, UniProt Q92794, residues 1-181)
Method: protein binding microarray
Form: double-stranded DNA, one strand shown
Matrix: in vitro
Concentration: not given
Notes: 8-mer, flanks averaged, mean of 2 arrays, mostly near background
Reference: not given
Reading: higher = stronger binding
Target sequence (chain): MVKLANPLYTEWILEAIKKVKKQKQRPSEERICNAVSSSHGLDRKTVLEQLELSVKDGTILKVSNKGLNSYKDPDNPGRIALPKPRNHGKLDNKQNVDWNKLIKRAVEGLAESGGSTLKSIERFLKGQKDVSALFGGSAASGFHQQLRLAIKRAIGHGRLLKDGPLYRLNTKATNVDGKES
Oligonucleotide | E-score
AGGAGAAC | 0.00915
CGATTTAA | -0.103
GCATCTAC | 0.00247
AGGTTCGA | -0.21
GCTGGTCC | 0.018
CTGATTGC | 0.0331
TCAATTAA | -0.0603
GGGAGCAA | -0.116
GTTAAGGA | -0.0178
CAACGTTA | -0.0224
CATTCCCC | -0.0597
CGTTGCTC | 0.151
AGTTATAG | -0.107
CTGTGGTA | -0.0927
GACATGTA | 0.023
CCGCTCAG | 0.23
ACAGGGAT | -0.259
AATCTCAC | -0.0326
CTCATCGC | 0.0718
AGCCGCGG | 0.402
GAACTGTC | -0.054
ATTTACAA | -0.0694
AATATACG | 0.0309
GTATTGGA | -0.0493
ATTTGACC | -0.0829

Sample 4
Target: Phosphate system positive regulatory protein PHO4, full length, GST-tagged (PHO4, Saccharomyces cerevisiae, UniProt P07270, residues 1-312)
UniProt P07270, sequence (whole entry, looked up): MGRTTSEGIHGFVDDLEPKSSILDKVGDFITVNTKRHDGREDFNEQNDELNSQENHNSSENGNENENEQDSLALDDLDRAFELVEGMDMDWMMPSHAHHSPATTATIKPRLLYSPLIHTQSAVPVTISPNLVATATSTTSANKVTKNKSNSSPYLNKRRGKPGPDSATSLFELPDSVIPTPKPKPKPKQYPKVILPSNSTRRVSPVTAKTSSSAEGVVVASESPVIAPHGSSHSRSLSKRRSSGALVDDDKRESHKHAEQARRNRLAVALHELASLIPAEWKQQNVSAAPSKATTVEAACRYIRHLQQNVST
Method: competition protein-binding microarray
Form: double-stranded DNA, one strand shown
Matrix: in vitro
Concentration: 2 µM
Notes: whole 60-bp probe, lowest competitor level
With: Cbf1 competitor, 0.05 µM
Reading: higher = stronger binding
Constant ends, left off below: … GTCTTGATTCGCTTGACGCTGCTG
Oligonucleotide | fluorescence intensity
GTCTTGTCTCATTGAATTGTGGGTGTCCCCACTTCA | 4810 a.u.
AGATGATTAAGACATCTCGTGGAGGAATCATCATCT | 8250 a.u.
TGCCCTTGCGCCTGGCACGTTTCAGCTTCTTTCTAA | 10200 a.u.
AAAGCGGTAATTTGTGTGGTGGGTGCAGATATCTAT | 4950 a.u.
TAGCTGCTCCATTAAGGCGTGATGGACTATGGAGAG | 7100 a.u.
CATACCCAACCTTGCGGAGTGGGTGAAGATATTTGT | 4330 a.u.
CTTTCCCGATCTTGTACGGTGGGTGTAGCACATTTG | 4320 a.u.
GTACGGGTGGACGACCACGTGCCGACTATACGCTAT | 16000 a.u.
CTTTCCCGATCTTGGAGTGTGGGTGTAGCACATTTG | 5600 a.u.
CGGGGTTAAGTTTGTTGTGTGGGTGGCTTGCAGCAG | 4780 a.u.
GAATTTTGCAAATCCAACGTGGCCGGTTGACCAGTA | 11100 a.u.
ATACGGCAGCAGCCTTTCGTGCTTTCCGCCTATTTT | 4270 a.u.
AAAGCGGTAATTTGGAGAGTGGGTGCAGATATCTAT | 4340 a.u.
TCGCGCCCTGTCAGGAACATGATGTCCGCCATTTGA | 4900 a.u.
CTAACGAAGGTTTGTAGTGTGGGTGACAAGCCAAGT | 5270 a.u.
CGGGGTTAAGTTTGGATAGTGGGTGGCTTGCAGCAG | 4500 a.u.
CATACCCAACCTTGTCTCGTGGGTGAAGATATTTGT | 10700 a.u.

Sample 5
Target: Prothrombin, mature alpha-thrombin (F2, Homo sapiens, UniProt P00734)
Method: aptamer microarray, sandwich
Form: DNA with 2'F-ANA
Matrix: in vitro
Concentration: 200 nM
Notes: whole 15-mer aptamer, many near background
With: Cy3 exosite-II aptamer, 400 nM
Reading: higher = stronger binding
Oligonucleotide: GGTTGGTGTGGTTGG
Modification | mean fluorescence intensity
2'F-ANA at 2 3 7 10 11 12 15 | 440 a.u.
2'F-ANA at 1 2 3 8 9 11 14 15 | 93.5 a.u.
2'F-ANA at 1 2 3 4 6 7 8 9 10 12 14 15 | 74.2 a.u.
2'F-ANA at 1 2 3 4 5 8 15 | 62.1 a.u.
2'F-ANA at 1 3 6 8 10 11 12 13 14 | 61.2 a.u.
2'F-ANA at 1 2 4 5 8 9 11 12 13 15 | 95.3 a.u.
2'F-ANA at 2 3 4 6 13 14 | 225 a.u.
2'F-ANA at 1 3 6 7 11 13 15 | 190 a.u.
2'F-ANA at 1 2 3 4 5 6 7 8 9 13 14 15 | 49.5 a.u.
2'F-ANA at 4 5 7 8 10 11 13 14 | 64 a.u.
2'F-ANA at 5 7 8 9 10 11 12 14 | 65.5 a.u.
2'F-ANA at 5 6 7 9 11 12 13 | 82.3 a.u.
2'F-ANA at 2 5 7 8 9 10 11 13 14 | 51.9 a.u.
2'F-ANA at 4 8 9 10 12 14 15 | 90.1 a.u.
2'F-ANA at 1 2 3 7 11 12 14 | 84.7 a.u.
2'F-ANA at 2 5 8 10 11 14 15 | 96.7 a.u.
2'F-ANA at 1 4 5 6 8 11 12 | 84 a.u.
2'F-ANA at 1 2 3 4 6 7 15 | 201 a.u.
2'F-ANA at 2 3 8 10 12 13 14 15 | 289 a.u.
2'F-ANA at 2 3 6 7 8 9 10 12 13 14 | 251 a.u.
2'F-ANA at 6 7 8 13 14 15 | 205 a.u.
2'F-ANA at 1 5 6 7 10 11 12 14 | 46.1 a.u.
2'F-ANA at 1 2 9 11 12 | 342 a.u.
2'F-ANA at 4 5 6 7 10 11 12 13 | 79.7 a.u.
2'F-ANA at 4 6 7 8 14 15 | 102 a.u.
